Measurements collected from several papers.
Lines come from different studies, so protocols differ.
RAF1: RAF proto-oncogene serine/threonine-protein kinase (RAF1, Homo sapiens, UniProt P04049)

Structure (SMILES)	target	test	test system	setting	measurement	value
CS(=O)(=O)Nc1cccc(-c2csc3cnc(Nc4ccc(N5CCN(CCCCCOc6cccc7c6C(=O)N(C6CCC(=O)NC6=O)C7=O)CC5)cc4)nc23)c1 (stereo not shown)	RAF1	probe labelling, inhibitor, KiNativ chemoproteomics	MOLT-4	1 µM	inhibition	-1.72%
C=CC(=O)Nc1cccc(-c2cnc3[nH]cc(C(=O)NC(C)(C)C)c3n2)c1	RAF1	enzyme activity, inhibitor		0.1 µM	inhibition	-1%
CN1CC[C@@H](COc2cnc(C#N)cc2-c2ccn3nc(NC(=O)C4CC4)cc3c2)C1	RAF1	enzyme activity, inhibitor		1 µM	inhibition	17%
CCN1CCN(Cc2ccc(C(=O)Nc3ccc(C)c(NCc4cnc5[nH]ccc5c4OC)c3)cc2C(F)(F)F)CC1	RAF1	binding, competition with immobilised ligand		1 µM	remaining binding	25%
Cc1cnc2nc1Nc1cccc(c1)COC/C=C/COCc1cc(ccc1OCCN1CCOCC1)N2	RAF1	binding, competition with immobilised ligand		0.1 µM	remaining binding	94%
COc1c(Cl)cccc1Nc1c(-c2ccncc2C#C[C@@]2(C)CCCN2C(=O)/C=C/CN(C)C)[nH]c2c1C(=O)NCC2	RAF1	binding, competition with immobilised ligand		3 µM	remaining binding	56%
CNS(=O)(=O)Nc1nccc(Cc2c(C)c3ccc(Oc4ncccc4F)cc3oc2=O)c1F	RAF1	binding, competition with immobilised ligand		10 µM	remaining binding	24%
CC(C)=CC1OC(C)(C)C2C=C3C(=O)C(Cl)=CC(O)C3C3C(O)C4OC4C(=O)C132 (stereo not shown)	RAF1	cell-free assay, competition with immobilised ligand		10 µM	remaining binding	85%
CN1CCN(Cc2ccc(NC(=O)c3cccc(C#Cc4cnc(N)c5ncccc45)c3)cc2C(F)(F)F)CC1	RAF1	cell-free assay, competition with immobilised ligand		50 nM	remaining binding	18%
C[C@H]1CN(C(=O)c2cn(-c3ccnc(N)n3)c3cc(C#CC4(O)CCCCC4)ccc23)CCN1	RAF proto-oncogene serine/threonine-protein kinase (RAF1, Homo sapiens, UniProt P04049, Y340D/Y341D)	enzyme activity, inhibitor, FRET		1 µM	inhibition	-2%
C=C1CCCCCCCCCC(CO)C1=O (stereo not shown)	RAF1	cell-free assay, competition with immobilised ligand		10 µM	remaining binding	97%
CNC(=O)C1CCN(c2cc(C)c(F)cc2NC(=O)c2ccc(-c3cc(O)ccc3C)c(C)c2)CC1	RAF1	binding, competition with immobilised ligand		1 µM	remaining binding	76%
Cc1cccc(O[C@H]2CCC[C@@H](C(C)CNCc3ccncc3)C2)c1 (relative stereo)	RAF1	enzyme activity, inhibitor		1 µM	inhibition	-6%

Repeated from above:
Structure (SMILES)	target	test	test system	setting	measurement	value
CNC(=O)C1CCN(c2cc(C)c(F)cc2NC(=O)c2ccc(-c3cc(O)ccc3C)c(C)c2)CC1	RAF1	binding, competition with immobilised ligand		1 µM	remaining binding	76%
